# Assay results from different studies.
# Lines come from different studies, so protocols differ. ± marks the error that the study gave.
SMILES,target,test,system,setting,IC50
CC(C)C[C@@H](/C=C/S(C)(=O)=O)NC(=O)[C@H](CC(C)C)NC(=O)[C@@H](NC(=O)N[C@H](C(=O)NCc1ccccc1)C(C)C)C(C)C,rabbit 26S proteasome beta5,chymotrypsin-like activity,,"30 min, 37 °C, added: Suc-LLVY-AMC",0.64 µM
CO[C@H]1[C@H](O)[C@@H](N)[C@@H](O[C@H]2[C@H](O[C@@H]3O[C@H](CO)[C@@H](O[C@H]4O[C@@H](CN)[C@@H](O)[C@H](O)[C@H]4N)[C@H]3O)[C@@H](O)[C@H](N)C[C@@H]2N)O[C@@H]1CO,ribosome with mitochondrial A site,"luciferase translation, cell-free translation",,,107 ± 24.3 mg/L
CC[C@H](C)[C@@H]1NC(=O)[C@H](Cc2ccc(O)cc2)NC(=O)[C@@H](N)CSSC[C@@H](C(=O)N2CCC[C@H]2C(=O)N2CCC[C@H]2C(=O)NCC(N)=O)NC(=O)[C@H](CC(N)=O)NC(=O)[C@H](CCC(N)=O)NC1=O,oxytocin receptor (Callithrix jacchus),membrane hyperpolarisation,CHO cells,,0.00149 µM
NC[C@@H]1O[C@H](O[C@H]2[C@@H](O)[C@H](O[C@@H]3[C@@H](O)[C@H](N)C[C@H](N)[C@H]3O[C@H]3O[C@H](CO)[C@@H](OCCCO)[C@H](O)[C@H]3N)O[C@@H]2CO)[C@H](N)[C@@H](O)[C@@H]1O,ribosome with mitochondrial A1555G A site,"luciferase translation, cell-free translation",,,> 700 mg/L
CCC(=O)CCCCC[C@@H]1NC(=O)[C@H]2CCCCN2C(=O)[C@H]([C@@H](C)CC)NC(=O)[C@H](Cc2cn(OC)c3ccccc23)NC1=O,"HDAC, human","enzyme activity, inhibitor",HeLa nuclear extract,,0.009 µM
CC[C@@H]1CN2CCc3c([nH]c4cccc(OC)c34)[C@@H]2C[C@@H]1/C(=C\OC)C(=O)OC,rabbit anti-mitragynine polyclonal IgG,competitive indirect ELISA,,salt 1.67 M,4.89 mg/L
CCCCCCCCC(=O)NCc1ccc(O)c(OC)c1,mouse mAb 1-D6,"antibody binding, indirect competitive ELISA",,,2.13 mg/L
Oc1ccc(Cl)cc1-c1nc2c(C(F)(F)F)cc(C(F)(F)F)cc2[nH]1,NF-κB (human),"reporter gene, inhibitor",HEK293 NF-κB luciferase reporter,added: TNFα,2.29 ± 1.55 µM
CCCCCO[C@H]1[C@H](O)[C@@H](N)[C@@H](O[C@H]2[C@H](O[C@@H]3O[C@H](CO)[C@@H](O[C@H]4O[C@@H](CN)[C@@H](O)[C@H](O)[C@H]4N)[C@H]3O)[C@@H](O)[C@H](N)C[C@@H]2N)O[C@@H]1CO,ribosome with mitochondrial A site,"luciferase translation, cell-free translation",,,109 ± 6.73 mg/L

# For quick reference, copied from above:
SMILES,target,test,system,setting,IC50
CCC(=O)CCCCC[C@@H]1NC(=O)[C@H]2CCCCN2C(=O)[C@H]([C@@H](C)CC)NC(=O)[C@H](Cc2cn(OC)c3ccccc23)NC1=O,"HDAC, human","enzyme activity, inhibitor",HeLa nuclear extract,,0.009 µM
